Experimental data from different studies.
Parts stem from different laboratories: compare values within a part only. Values joined by “and” are separate records of one study, mostly repeats; a detail may differ.
Chain of UniProt P31152 (whole entry, looked up): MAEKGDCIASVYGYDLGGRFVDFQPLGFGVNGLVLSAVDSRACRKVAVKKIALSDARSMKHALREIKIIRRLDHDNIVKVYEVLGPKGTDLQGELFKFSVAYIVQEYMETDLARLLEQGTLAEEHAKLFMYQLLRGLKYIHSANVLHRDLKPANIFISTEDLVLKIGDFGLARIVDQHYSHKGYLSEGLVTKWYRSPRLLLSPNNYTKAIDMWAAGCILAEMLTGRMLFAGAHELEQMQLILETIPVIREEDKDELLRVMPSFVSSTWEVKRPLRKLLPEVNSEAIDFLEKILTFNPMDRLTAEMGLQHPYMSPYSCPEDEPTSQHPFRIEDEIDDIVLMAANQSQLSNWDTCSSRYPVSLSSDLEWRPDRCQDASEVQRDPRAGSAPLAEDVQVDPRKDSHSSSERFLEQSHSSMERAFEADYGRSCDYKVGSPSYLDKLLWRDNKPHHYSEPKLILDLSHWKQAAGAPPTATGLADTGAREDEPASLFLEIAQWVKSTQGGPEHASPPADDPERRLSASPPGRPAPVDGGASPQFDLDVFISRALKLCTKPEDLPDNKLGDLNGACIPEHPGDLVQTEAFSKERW
Chain of UniProt Q9P286 (whole entry, looked up): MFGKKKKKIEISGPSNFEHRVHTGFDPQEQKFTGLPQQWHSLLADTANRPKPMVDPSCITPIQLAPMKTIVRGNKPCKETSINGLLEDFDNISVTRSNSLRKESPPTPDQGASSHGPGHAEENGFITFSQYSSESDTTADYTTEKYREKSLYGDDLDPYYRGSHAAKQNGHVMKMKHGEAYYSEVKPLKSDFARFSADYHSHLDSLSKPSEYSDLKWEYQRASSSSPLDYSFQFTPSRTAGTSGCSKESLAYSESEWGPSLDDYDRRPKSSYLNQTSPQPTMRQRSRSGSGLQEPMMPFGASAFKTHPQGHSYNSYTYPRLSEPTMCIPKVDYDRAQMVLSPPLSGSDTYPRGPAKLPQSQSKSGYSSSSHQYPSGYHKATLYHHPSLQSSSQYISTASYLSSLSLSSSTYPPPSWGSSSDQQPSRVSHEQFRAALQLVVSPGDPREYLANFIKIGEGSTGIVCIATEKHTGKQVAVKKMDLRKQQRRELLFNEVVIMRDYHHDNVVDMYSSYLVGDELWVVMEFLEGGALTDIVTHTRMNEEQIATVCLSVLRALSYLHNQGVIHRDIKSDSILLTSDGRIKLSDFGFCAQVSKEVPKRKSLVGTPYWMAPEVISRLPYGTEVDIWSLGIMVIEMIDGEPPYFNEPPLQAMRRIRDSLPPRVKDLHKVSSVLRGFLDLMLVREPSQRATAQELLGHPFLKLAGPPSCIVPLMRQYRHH
Chain of UniProt Q9H2X6 (whole entry, looked up): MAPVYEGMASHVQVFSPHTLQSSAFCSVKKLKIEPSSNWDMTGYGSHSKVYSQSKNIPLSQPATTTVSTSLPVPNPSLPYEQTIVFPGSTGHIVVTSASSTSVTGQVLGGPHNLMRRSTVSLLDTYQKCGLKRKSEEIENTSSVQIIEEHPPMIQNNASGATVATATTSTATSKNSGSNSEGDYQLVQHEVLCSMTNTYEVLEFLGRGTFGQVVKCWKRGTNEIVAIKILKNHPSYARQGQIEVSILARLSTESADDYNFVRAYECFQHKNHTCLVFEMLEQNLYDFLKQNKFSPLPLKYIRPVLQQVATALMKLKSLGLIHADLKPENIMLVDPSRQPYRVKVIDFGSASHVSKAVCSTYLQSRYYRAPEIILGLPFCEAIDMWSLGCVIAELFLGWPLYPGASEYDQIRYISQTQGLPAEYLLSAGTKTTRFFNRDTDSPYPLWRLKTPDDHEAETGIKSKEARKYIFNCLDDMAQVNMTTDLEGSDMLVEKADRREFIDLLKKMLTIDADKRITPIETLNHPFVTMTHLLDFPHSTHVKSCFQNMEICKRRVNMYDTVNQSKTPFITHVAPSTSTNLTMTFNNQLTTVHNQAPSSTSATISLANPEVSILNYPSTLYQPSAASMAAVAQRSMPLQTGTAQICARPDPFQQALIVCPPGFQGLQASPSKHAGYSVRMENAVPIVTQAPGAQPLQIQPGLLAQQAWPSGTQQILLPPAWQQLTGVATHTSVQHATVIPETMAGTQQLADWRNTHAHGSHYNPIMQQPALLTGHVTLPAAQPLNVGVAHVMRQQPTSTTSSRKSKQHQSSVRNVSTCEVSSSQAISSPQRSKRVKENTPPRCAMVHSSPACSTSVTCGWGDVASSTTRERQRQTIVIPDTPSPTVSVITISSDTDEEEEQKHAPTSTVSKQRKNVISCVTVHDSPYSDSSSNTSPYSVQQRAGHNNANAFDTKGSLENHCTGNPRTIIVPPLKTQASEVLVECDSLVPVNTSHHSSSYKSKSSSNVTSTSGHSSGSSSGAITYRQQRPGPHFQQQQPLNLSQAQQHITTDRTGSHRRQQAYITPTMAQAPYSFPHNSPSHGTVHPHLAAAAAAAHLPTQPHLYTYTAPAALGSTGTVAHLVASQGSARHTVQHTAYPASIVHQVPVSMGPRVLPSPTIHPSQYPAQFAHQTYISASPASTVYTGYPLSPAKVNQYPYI
Chain of UniProt P42680 (whole entry, looked up): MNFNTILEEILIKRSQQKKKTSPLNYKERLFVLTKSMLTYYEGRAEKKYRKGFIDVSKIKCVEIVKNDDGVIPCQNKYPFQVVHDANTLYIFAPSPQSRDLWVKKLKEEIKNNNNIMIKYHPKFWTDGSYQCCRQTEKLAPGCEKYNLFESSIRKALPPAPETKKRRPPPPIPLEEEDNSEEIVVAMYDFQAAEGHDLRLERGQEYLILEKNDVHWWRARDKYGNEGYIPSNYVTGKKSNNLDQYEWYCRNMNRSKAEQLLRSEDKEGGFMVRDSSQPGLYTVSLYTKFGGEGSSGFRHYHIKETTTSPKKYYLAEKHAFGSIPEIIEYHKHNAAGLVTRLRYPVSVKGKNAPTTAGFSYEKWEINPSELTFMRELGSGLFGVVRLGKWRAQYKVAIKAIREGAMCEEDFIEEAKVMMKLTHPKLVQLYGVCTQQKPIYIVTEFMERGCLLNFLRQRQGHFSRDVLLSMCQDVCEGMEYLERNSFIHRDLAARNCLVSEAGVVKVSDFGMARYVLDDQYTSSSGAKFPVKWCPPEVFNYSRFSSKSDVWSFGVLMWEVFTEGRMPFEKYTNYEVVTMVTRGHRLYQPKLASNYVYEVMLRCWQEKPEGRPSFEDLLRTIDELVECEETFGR
Chain of UniProt Q02763 (whole entry, looked up): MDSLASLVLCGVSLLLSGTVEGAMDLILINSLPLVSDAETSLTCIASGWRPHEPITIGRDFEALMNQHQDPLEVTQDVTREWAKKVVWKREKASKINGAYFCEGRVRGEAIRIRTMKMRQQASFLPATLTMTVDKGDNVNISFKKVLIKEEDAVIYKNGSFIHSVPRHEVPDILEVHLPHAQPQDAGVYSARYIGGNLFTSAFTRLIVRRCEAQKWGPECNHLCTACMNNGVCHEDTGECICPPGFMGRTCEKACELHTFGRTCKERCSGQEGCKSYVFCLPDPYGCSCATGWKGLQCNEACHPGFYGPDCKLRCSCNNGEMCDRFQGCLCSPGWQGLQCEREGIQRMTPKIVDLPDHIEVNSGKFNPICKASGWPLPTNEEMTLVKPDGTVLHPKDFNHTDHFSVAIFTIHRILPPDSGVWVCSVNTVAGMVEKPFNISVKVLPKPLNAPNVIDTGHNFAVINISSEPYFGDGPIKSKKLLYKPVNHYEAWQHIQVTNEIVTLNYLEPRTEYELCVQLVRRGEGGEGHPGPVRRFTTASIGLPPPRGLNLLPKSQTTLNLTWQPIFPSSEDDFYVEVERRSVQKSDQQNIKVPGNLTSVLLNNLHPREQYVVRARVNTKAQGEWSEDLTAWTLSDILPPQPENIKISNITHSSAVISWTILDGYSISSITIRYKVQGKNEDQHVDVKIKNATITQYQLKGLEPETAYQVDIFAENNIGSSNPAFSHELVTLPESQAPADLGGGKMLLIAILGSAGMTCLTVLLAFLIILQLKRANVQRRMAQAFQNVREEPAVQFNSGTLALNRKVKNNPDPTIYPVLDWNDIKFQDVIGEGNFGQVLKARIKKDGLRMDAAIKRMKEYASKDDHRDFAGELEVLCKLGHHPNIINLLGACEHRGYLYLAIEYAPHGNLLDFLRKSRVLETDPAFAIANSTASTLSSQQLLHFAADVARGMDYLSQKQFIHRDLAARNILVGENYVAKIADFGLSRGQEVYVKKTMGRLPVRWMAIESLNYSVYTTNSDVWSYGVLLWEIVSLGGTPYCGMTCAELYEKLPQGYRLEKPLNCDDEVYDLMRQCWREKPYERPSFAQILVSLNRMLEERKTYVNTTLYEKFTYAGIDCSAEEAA
Chain of UniProt O43318 (whole entry, looked up): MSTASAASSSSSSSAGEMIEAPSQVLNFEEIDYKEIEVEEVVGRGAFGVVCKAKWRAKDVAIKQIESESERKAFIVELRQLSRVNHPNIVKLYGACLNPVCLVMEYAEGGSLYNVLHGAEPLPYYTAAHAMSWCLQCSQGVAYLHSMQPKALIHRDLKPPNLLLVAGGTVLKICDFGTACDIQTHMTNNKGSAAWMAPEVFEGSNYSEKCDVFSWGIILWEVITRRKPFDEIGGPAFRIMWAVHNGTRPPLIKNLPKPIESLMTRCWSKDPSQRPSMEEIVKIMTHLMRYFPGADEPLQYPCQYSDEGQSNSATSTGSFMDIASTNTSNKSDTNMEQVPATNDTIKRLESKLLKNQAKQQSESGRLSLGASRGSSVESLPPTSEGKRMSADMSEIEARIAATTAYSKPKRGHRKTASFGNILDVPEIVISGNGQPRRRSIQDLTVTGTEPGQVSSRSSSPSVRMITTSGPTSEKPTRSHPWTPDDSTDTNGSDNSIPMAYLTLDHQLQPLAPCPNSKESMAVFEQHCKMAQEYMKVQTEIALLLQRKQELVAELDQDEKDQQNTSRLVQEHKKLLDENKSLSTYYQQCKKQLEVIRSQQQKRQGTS

Set 1
SMILES: Cc1nc(Cc2cccc(C(F)(F)F)c2)sc1-c1ccc(C(N)=O)nc1
Technique: competition with immobilised ligand
Tested at: 1 µM
It gave 91% for remaining binding (Phosphatidylinositol 4-kinase beta (PI4KB, Homo sapiens, UniProt Q9UBF8); cell-free assay).
It gave 67% for remaining binding (Membrane-associated tyrosine- and threonine-specific cdc2-inhibitory kinase (PKMYT1, Homo sapiens, UniProt Q99640); cell-free assay).
Cyclin-dependent kinase 4 (CDK4, Homo sapiens, UniProt P11802); cell-free assay — remaining binding: 99%.
For Homeodomain-interacting protein kinase 2 (HIPK2, Homo sapiens, UniProt Q9H2X6); cell-free assay: remaining binding read 100%.
Fibroblast growth factor receptor 4 (FGFR4, Homo sapiens, UniProt P22455); cell-free assay — remaining binding: 100%.
The remaining binding was 87% (cGMP-dependent protein kinase 1 (PRKG1, Homo sapiens, UniProt Q13976); cell-free assay).
The remaining binding was 92% (Tyrosine-protein kinase JAK1, JH2 (JAK1, Homo sapiens, UniProt P23458); cell-free assay).
For Mast/stem cell growth factor receptor Kit (KIT, Homo sapiens, UniProt P10721, L576P); cell-free assay: remaining binding read 89%.
For Angiopoietin-1 receptor (TEK, Homo sapiens, UniProt Q02763); cell-free assay: remaining binding read 80%.
Mitogen-activated protein kinase kinase kinase 7 (MAP3K7, Homo sapiens, UniProt O43318); cell-free assay — remaining binding: 93%.
The remaining binding was 67% (Epidermal growth factor receptor (EGFR, Homo sapiens, UniProt P00533, G719S); cell-free assay).
Serine/threonine-protein kinase PLK2 (PLK2, Homo sapiens, UniProt Q9NYY3); cell-free assay — remaining binding: 82%.
It gave 100% for remaining binding (Tyrosine-protein kinase Yes (YES1, Homo sapiens, UniProt P07947); cell-free assay).
It gave 98% for remaining binding (Dual specificity mitogen-activated protein kinase kinase 2 (MAP2K2, Homo sapiens, UniProt P36507); cell-free assay).
The remaining binding was 90% (Serine/threonine-protein kinase LATS2 (LATS2, Homo sapiens, UniProt Q9NRM7); cell-free assay).
Ribosomal protein S6 kinase alpha-3, N-terminal kinase domain (RPS6KA3, Homo sapiens, UniProt P51812); cell-free assay — remaining binding: 100%.
It gave 100% for remaining binding (Mitogen-activated protein kinase kinase kinase kinase 1 (MAP4K1, Homo sapiens, UniProt Q92918); cell-free assay).
Mitogen-activated protein kinase 6 (MAPK6, Homo sapiens, UniProt Q16659); cell-free assay — remaining binding: 100%.
It gave 100% for remaining binding (Tyrosine-protein kinase Tec (TEC, Homo sapiens, UniProt P42680); binding).
The remaining binding was 97% (Serine/threonine-protein kinase PAK 5 (PAK5, Homo sapiens, UniProt Q9P286); cell-free assay).
The remaining binding was 86% (Receptor-type tyrosine-protein kinase FLT3 (FLT3, Homo sapiens, UniProt P36888, N841I); cell-free assay).
Serine/threonine-protein kinase 38-like (STK38L, Homo sapiens, UniProt Q9Y2H1); binding — remaining binding: 44%.
For Mitogen-activated protein kinase 4 (MAPK4, Homo sapiens, UniProt P31152); cell-free assay: remaining binding read 100%.
The remaining binding was 91% (Receptor-interacting serine/threonine-protein kinase 1 (RIPK1, Homo sapiens, UniProt Q13546); cell-free assay).
For Protein kinase C delta type (PRKCD, Homo sapiens, UniProt Q05655); cell-free assay: remaining binding read 79%.

Set 2
Cell line: mouse MPNST tumor cells
Technique: high-content immunofluorescence imaging
Item: nuclear SOX9
Tested at: 10 µM
Time: 12 h
Notes: mean of 2 replicates
Relative to: DMSO control
Direction: higher = more nuclear SOX9
Under “nuclear SOX9 intensity”, `CC(=O)Oc1ccccc1C(=O)Nc1ncc([N+](=O)[O-])s1` is recorded as 111 % of DMSO and 97.5 % of DMSO.
`CN(C)CC(=O)Nc1ccc2[nH]c(=O)c3ccccc3c2c1` — result for “nuclear SOX9 intensity”: 154 % of DMSO.
`CCOC(=O)OC(C)OC1=C(C(=O)Nc2ccccn2)N(C)S(=O)(=O)c2ccccc21` (stereo not drawn) — result for “nuclear SOX9 intensity”: 88.1 % of DMSO.

Set 3
Target: Hepatocyte nuclear factor 3-alpha (Foxa1, Mus musculus, UniProt P35582, residues 1-468, full length assumed)
Technique: EMSA with sequencing
Molecule type: double-stranded DNA, one strand shown
Matrix: in vitro
Tested at: 10 and 20 nM
Notes: whole designed probe, mean of two concentrations, ends assumed
Relative to: negative control set to 0
Direction: higher = stronger binding
All sequences stand within: GTGAGCGGTGCCCATTGATGGGGAAC … TTTCACTGGGATCGTGGGGAC
Residues (chain): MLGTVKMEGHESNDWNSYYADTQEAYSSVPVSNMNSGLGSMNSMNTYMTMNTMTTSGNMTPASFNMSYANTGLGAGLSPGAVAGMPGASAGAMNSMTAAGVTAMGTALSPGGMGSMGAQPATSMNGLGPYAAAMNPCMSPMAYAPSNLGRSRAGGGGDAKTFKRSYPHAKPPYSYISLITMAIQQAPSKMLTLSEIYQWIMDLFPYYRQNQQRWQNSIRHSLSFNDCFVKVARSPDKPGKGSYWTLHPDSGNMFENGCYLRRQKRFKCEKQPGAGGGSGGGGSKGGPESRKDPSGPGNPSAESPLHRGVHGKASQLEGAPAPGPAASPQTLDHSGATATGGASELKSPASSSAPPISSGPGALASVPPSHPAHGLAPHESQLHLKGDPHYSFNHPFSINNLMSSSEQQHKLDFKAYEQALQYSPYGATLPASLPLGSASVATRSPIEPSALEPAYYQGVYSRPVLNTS
Under “normalised bound fraction”, `ATCTTCCCCCTCTTCCTTGCCCCACCAGCTCACCTTCCCGGGTTATTTGCAGATAGGAAAATAAATAAAGCCGGCATTCGTTAACCCTCTTCTGGCGCAAACTGCTGTTTGCTCTGCATCTAACATGGTCCTTACGCGACGCCAGGCTCCGGGAGAGCAAAGCACCGTGTCAGGCGCATGATCCGGGGTGGCC` is recorded as 0.354 ratio.
For `ATCTTCCCCCTCTTCCTTGCCCCACCAGCTCACCTACGGGGGTTATTTGCACAAAGGAAAATAAATAAAGCCGGCATTCGTTAACCCTCTTCACGCGCATACTGCTGTTTGCTCTGGATGAATCATGGTCCTTTGGCGAGGCGTGGCTCCGGGAGAGCAAAGCACCGTGTCAGGGCCATGATCCGGGCTCGCC`, “normalised bound fraction” read 0.378 ratio.
`ACTCGTATACTTATGTGAATGTATATATTTATGTGTTGATAAATAAAATGATACACAAAAATTAGAAAATAACATTGAAAGACTGAACATAAAAGTAATCTAGAAGAGATTAATTCTCGAATGCACAGTTTAAAAAGAATCAAAAGTATATCTTCAAGCTCCTTAGAATATAATGAAAATGGGGACTTATAAT`: “normalised bound fraction” 0.103 ratio.
`ATCTTCCCCCTCTTCCTTGCCCCACCAGCTCACCTTCCCGGGTCAAAGTAAACAAGTGTTTACTTTGAAGCCGGCATTCGTTAACCCTCTTCACGCGCATACTGCCAGAGCAAACAGATCTAACATGGTCCTTTGGCGACGCCAGGCTCCGGGAGAGCAAAGCACCGTGTCAGGGCCATGATCCGGGGTGGCC`: “normalised bound fraction” 0.47 ratio.
`TTATGATCTGAGTATATATAGTAAGTACCTCCCCTTTCAGGGTAAGGCAGTAGGTAATGGTGAACAGGGAAGCAAAAGGAGACTCTGGTTGAGTAAACAACACCAAGCATATCAGACTCTAGGAATGCTTCAGAGGCCAGGGGTGCATGCCTGTAATCCCAGCACCTTGGAAGGCTGACACAGGAGGATCACT`: “normalised bound fraction” 0.43 ratio.
For `TAGTGGTCTGAGTGTGTGGGAGTGGAGCTAAGCCTCCAGGACGATAGACTGTAGGACTTTGGATACTGGTTCCCAGCAAAAGATAAATGCCAATATTTGCATTGGGTATGGGGGGAGTGAACACTTCCCACAAAGGCCTTTGTTCTTTTGCCCACAGCTTGTTACTTAGGCAACTGACAATTGAAGTTTGTGG`, “normalised bound fraction” read 0.302 ratio.
`ATCTTGTAACTCACGCAGATTTGCAGGTTTCAAAAATTGTTATATATGACAGAAAAATCTGATTCTTAAATTATCCCTGTACCCAGAACTATGTAAACATGCCCGTAACCTGCTCTGAATACTCAAAATAGACTTTCATACATTTAGAGTTAATTTTTTAAATCAAAGAGTAGTTTTTAAAAGTGTAAACATT` — result for “normalised bound fraction”: 0.378 ratio.
`GCCGGAAATTACCCACAATCTCTGTTTTGGAAGTAATTAATCTTCGAATGTAGGAGCCCCTTTGTGGTGGAAAGCGCACGCTGACACTTTTGTGTAATCTCCCAGCTTAGCATATTGACAAACTGGTGGCTGTTACTTTGATCCCGGGCTGCCGGCTCTGAAAAGGCAAGCCAGCTCCGGGCTGCCCCACCGG` — result for “normalised bound fraction”: 0.0168 ratio.

Set 4
Target: Interferon regulatory factor 5, full length, phosphomimetic (IRF5, Homo sapiens, UniProt Q13568-2, residues 1-514, S451D/S453D/S456D/S462D)
Technique: protein-binding microarray
Molecule type: double-stranded DNA, one strand shown
Matrix: in vitro
Tested at: 940 nM top
Notes: 60-bp whole probe
With: salmon DNA 0.4 mg/ml
Relative to: random background probes
Direction: higher = stronger binding
All sequences stand within: GCCTAGCAC … GTCTTGATTCGCTTGACGCTGCTG
Under “fitted relative affinity”, `TTAGGACTGCTTCTCATTTAGTGCTAG` is recorded as -0.124 z-score.
`TTAGATATCAGACAGGATTAGTGCTAG` — result for “fitted relative affinity”: -0.293 z-score.
For `TTAGATATCGGGTATCGATTGGTGCTA`, “fitted relative affinity” read 2.95 z-score.
Under “fitted relative affinity”, `TTAGGTTTCCTACTGCTTGAGTGCTAG` is recorded as 0.63 z-score.
`GACGATTTCACTATCGAGACGTGCTAG`: “fitted relative affinity” 1.03 z-score.
`GACGTTATCAGTCTCGAGACGTGCTAG`: “fitted relative affinity” 1.28 z-score.
Under “fitted relative affinity”, `GAAAATGCCCTTTTGGTGAGGTGCTAG` is recorded as -0.447 z-score.
`TTAGATATCACTATCGATTAGTGCTAG`: “fitted relative affinity” 0.954 z-score.

Set 5
Species: mouse
Matrix: microsomes or S9
Tested at: 2 µM
Time: 0.5 h
`CN1CCCCCCN(S(=O)(=O)c2cccc(F)c2)CCC1=O` has a remaining compound of 0.0605%.
For `Cc1cc(-n2c(C)cc(C(=O)CSc3[nH]c(=O)cc(C(F)(F)F)c3C#N)c2C)no1`, the remaining compound was 8.39%.
The remaining compound of `CC1C(OC(=O)C2=CN3CCS(=O)(=O)N=C3C=C2)CC2CC1C2(C)C` (stereo not drawn) is reported as 3.18%.

Other studies, line by line
`COCc1c(C(C)C)nc(C(C)C)c(/C=C/[C@@H](O)C[C@@H](O)CC(=O)O)c1-c1ccc(F)cc1` gave an inhibition of 30.3% (Sarcocystis neurona; parasite growth; 10 µM).
For `SURF6 (Homo sapiens, UniProt O75683)`, interaction screen read “cross-linked” (DDX54 (Homo sapiens, UniProt Q8TDD1); cross-linking MS; hits only).
The inhibition of `Cl.O=C1[C@H]2CCCC[C@H]2C(=O)N1CCCCN1CCN(c2nsc3ccccc23)CC1` is reported as 73.9% (Sarcocystis neurona; parasite growth; 10 µM).
The logD of `CCOC(=O)[C@@H]1CSCC(=O)N[C@H](CC)C(=O)N(C)[C@@H](C)C(=O)N[C@H](CC(C)C)C(=O)N2CCC[C@@H]2C(=O)N(CC)CC(=O)N[C@@H](CC(C)C)C(=O)N(C)[C@@H](C)C(=O)N[C@@H](CC(C)C)C(=O)N1C` is reported as -0.341 (PRP chromatography estimate; 1,9-decadiene/PBS; pH 7.4).

Some of these lines once more (set 1):
The remaining binding was 92% (Tyrosine-protein kinase JAK1, JH2 (JAK1, Homo sapiens, UniProt P23458); cell-free assay).
The remaining binding was 67% (Epidermal growth factor receptor (EGFR, Homo sapiens, UniProt P00533, G719S); cell-free assay).
It gave 67% for remaining binding (Membrane-associated tyrosine- and threonine-specific cdc2-inhibitory kinase (PKMYT1, Homo sapiens, UniProt Q99640); cell-free assay).
For Homeodomain-interacting protein kinase 2 (HIPK2, Homo sapiens, UniProt Q9H2X6); cell-free assay: remaining binding read 100%.
The remaining binding was 87% (cGMP-dependent protein kinase 1 (PRKG1, Homo sapiens, UniProt Q13976); cell-free assay).
The remaining binding was 97% (Serine/threonine-protein kinase PAK 5 (PAK5, Homo sapiens, UniProt Q9P286); cell-free assay).
The remaining binding was 91% (Receptor-interacting serine/threonine-protein kinase 1 (RIPK1, Homo sapiens, UniProt Q13546); cell-free assay).
